Assay results collected from several papers.
Lines come from different studies, so protocols differ. ± marks the error that the study gave.

| Compound | test | system | setting | tissue uptake |
| --- | --- | --- | --- | --- |
| CC[C@H](C)[C@H](NC(=O)[C@H](CCCCN)NC(=O)CNC(=O)[C@H](CC(C)C)NC(=O)[C@H](Cc1ccccc1)NC(=O)[C@H](CCCCN)NC(=O)[C@H](CO)NC(=O)[C@H](Cc1ccccc1)NC(=O)[C@H](Cc1c[nH]c2ccccc12)NC(=O)[C@H](CCC(N)=O)NC(=O)[C@@H](NC(=O)[C@H](Cc1ccccc1)NC(=O)CCCCCNC(=O)CN1CCN(CC(=O)O)CCN(CC(=O)O)CCN(CC(=O)O)CC1)C(C)C)C(=O)N[C@@H](CCC(=O)O)C(=O)N1CCC[C@H]1C(=O)N[C@@H](CC(=O)O)C(=O)N[C@H](C(=O)N[C@@H](CO)C(=O)N[C@@H](CCC(N)=O)C(=O)N[C@H](C(=O)N[C@@H](CCC(N)=O)C(=O)N[C@@H](CC(=O)O)C(=O)N1CCC[C@H]1C(=O)N[C@@H](CC(N)=O)C(=O)N[C@@H](CC(=O)O)C(=O)N[C@@H](CCC(N)=O)C(=O)N[C@@H](Cc1ccc(O)cc1)C(=O)N[C@@H](CCC(=O)O)C(=O)N1CCC[C@H]1C(=O)N[C@@H](Cc1ccccc1)C(=O)O)C(C)C)C(C)C [copper-64 labelled] | – | C57BL/6 mice, small intestine | vehicle, intratracheal instillation | 4.49 ± 0.5 %ID/g |
| CC[C@H](C)[C@H](NC(=O)[C@H](CCCNC(=N)N)NC(=O)[C@H](CCCCN)NC(=O)[C@H](Cc1ccc(O)cc1)NC(=O)[C@H](CC(=O)O)NC(=O)[C@H](C)NC(=O)CNC(=O)CCOCCOCCOCCNC(=O)CN1CCN(CC(=O)O)CCN(CC(=O)O)CCN(CC(=O)O)CC1)C(=O)N[C@H](C(=O)N[C@@H](CC(C)C)C(=O)N[C@@H](CCCCN)C(=O)N[C@H](C(=O)N[C@@H](CC(N)=O)C(N)=O)C(C)C)[C@@H](C)O [copper-64 labelled] | ex vivo gamma counting | C57BL/6J male mice, B16-F10 tumour, muscle | intravenous, 1.85 MBq, 5 min | 1.39 ± 0.404 %ID/g |
| CN1Cc2cc(Cl)ccc2-n2c(nnc2C2CCN(c3cccc([18F])n3)CC2)C1 | – | C57BL/6 mouse male, bone | intravenous, 3.7 MBq, 30 min | 6.93 ± 1.23 %ID/g |
| CC[C@H](C)[C@H](NC(=O)[C@H](CCCNC(=N)N)NC(=O)[C@H](CCCCN)NC(=O)[C@H](Cc1ccc(O)cc1)NC(=O)[C@H](CC(=O)O)NC(=O)[C@H](C)NC(=O)CNC(=O)CCOCCOCCOCCNC(=O)CN1CCN(CC(=O)O)CCN(CC(=O)O)CCN(CC(=O)O)CC1)C(=O)N[C@H](C(=O)N[C@H](C(=O)N[C@@H](CCCCN)C(=O)N[C@H](C(=O)N[C@@H](CC(N)=O)C(N)=O)C(C)C)C(C)C)[C@@H](C)O [copper-64 labelled] | – | C57BL/6J mouse male, B16-F10 tumour, small intestine | intravenous, 1.85 MBq, 20 min, 67Ga complex | 2.63 ± 0.396 %ID/g |
| CC(C)C[C@@H](NC(=O)[C@@H](CCCNC(=N)N)NC(=O)[C@@H](Cc1c[nH]cn1)NC(=O)[C@@H](Cc1c[nH]c2ccccc12)NC(=O)[C@@H](Cc1c[nH]cn1)NC(=O)[C@@H](Cc1ccccc1)NC(=O)[C@H](NC(=O)[C@@H](Cc1ccc(O)cc1)NC(=O)CNC(=O)CNC(=O)CCOCCOCCOCCNC(=O)CN1CCN(CC(=O)O)CCN(CC(=O)O)CC1)[C@H](C)O)C(=O)N[C@H](CC(N)=O)C(=O)N1CCC[C@@H]1C(=O)O [gallium-68 labelled] | gamma counting | C57BL/6 mice, male, heart | intravenous, 1.85 MBq, 120 min | 0.67 ± 0.12 %ID/g |
| CCCC[C@H]1C(=O)N(C)[C@@H](CCCC)C(=O)N[C@@H](CCCNC(=O)CN2CCN(CC(=O)O)CCN(CC(=O)O)CCN(CC(=O)O)CC2)C(=O)N[C@H](C(=O)NCC(N)=O)CSCC(=O)N[C@@H](Cc2ccc(O)cc2)C(=O)N(C)[C@@H](C)C(=O)N[C@@H](CC(N)=O)C(=O)N2CCC[C@H]2C(=O)N[C@@H](Cc2c[nH]cn2)C(=O)N[C@@H](CC(C)C)C(=O)N(C)CC(=O)N[C@@H](Cc2c[nH]c3ccccc23)C(=O)N[C@@H](CO)C(=O)N[C@@H](Cc2c[nH]c3ccccc23)C(=O)N1C [gallium-68 labelled] | – | NOD/SCID mice with CHO-hPD-L1 xenograft, brain | 10 min post injection | 0.51 ± 0.08 %ID/g |
| C[C@H](O)[C@@H](NC(=O)[C@H]1CCCN1C(=O)[C@@H](CCCCN)NC(=O)[C@@H](CO)NC(=O)[C@@H](Cc1ccc(O)cc1)NC(=O)[C@@H](CC(N)=O)NC(=O)CCOCCOCCOCCNC(=O)CN1CCN(CC(=O)O)CCN(CC(=O)O)CCN(CC(=O)O)CC1)C(=O)N[C@H](CC(=O)O)C(=O)N[C@H](CCCNC(=N)N)C(=O)N[C@H](CCC(N)=O)C(=O)N[C@H](Cc1ccc(O)cc1)C(=O)N[C@H](Cc1c[nH]cn1)C(=O)N[C@H](Cc1ccccc1)C(N)=O [gallium-68 labelled] | – | BALB/c nude mice U-87 MG tumour, lung | intravenous, 1.85 MBq, 1 h, radiolabelled | 0.13 ± 0.05 %ID/g |
| CSCC[C@H](NC(=O)CNC(=O)[C@H](CCCCN)NC(=O)[C@H](CC(C)C)NC(=O)[C@@H]1CCCN1C(=O)[C@H](CO)NC(=O)[C@H](Cc1c[nH]cn1)NC(=O)[C@H](Cc1c[nH]c2ccccc12)NC(=O)[C@H](CCCNC(=N)N)NC(=O)[C@H](CC(C)C)NC(=O)[C@H](CCCNC(=N)N)NC(=O)[C@H](Cc1c[nH]c2ccccc12)NC(=O)[C@H](CS)NC(=O)CCCCCNC(=O)CN1CCN(CC(=O)O)CCN(CC(=O)O)CCN(CC(=O)O)CC1)C(=O)O [copper-64 labelled] | ex vivo biodistribution | BALB/c nude mice, bladder | intravenous, dose not given, 2 h, Huh-7 tumour-bearing | 1.54 %ID/g |

Excerpt of the above:
| Compound | test | system | setting | tissue uptake |
| --- | --- | --- | --- | --- |
| CC(C)C[C@@H](NC(=O)[C@@H](CCCNC(=N)N)NC(=O)[C@@H](Cc1c[nH]cn1)NC(=O)[C@@H](Cc1c[nH]c2ccccc12)NC(=O)[C@@H](Cc1c[nH]cn1)NC(=O)[C@@H](Cc1ccccc1)NC(=O)[C@H](NC(=O)[C@@H](Cc1ccc(O)cc1)NC(=O)CNC(=O)CNC(=O)CCOCCOCCOCCNC(=O)CN1CCN(CC(=O)O)CCN(CC(=O)O)CC1)[C@H](C)O)C(=O)N[C@H](CC(N)=O)C(=O)N1CCC[C@@H]1C(=O)O [gallium-68 labelled] | gamma counting | C57BL/6 mice, male, heart | intravenous, 1.85 MBq, 120 min | 0.67 ± 0.12 %ID/g |
